Results gathered from unrelated publications.
Each numbered part is a random draw from the data of one study; scales do not carry over between parts.
Chain of UniProt P9WI81 (whole entry, looked up): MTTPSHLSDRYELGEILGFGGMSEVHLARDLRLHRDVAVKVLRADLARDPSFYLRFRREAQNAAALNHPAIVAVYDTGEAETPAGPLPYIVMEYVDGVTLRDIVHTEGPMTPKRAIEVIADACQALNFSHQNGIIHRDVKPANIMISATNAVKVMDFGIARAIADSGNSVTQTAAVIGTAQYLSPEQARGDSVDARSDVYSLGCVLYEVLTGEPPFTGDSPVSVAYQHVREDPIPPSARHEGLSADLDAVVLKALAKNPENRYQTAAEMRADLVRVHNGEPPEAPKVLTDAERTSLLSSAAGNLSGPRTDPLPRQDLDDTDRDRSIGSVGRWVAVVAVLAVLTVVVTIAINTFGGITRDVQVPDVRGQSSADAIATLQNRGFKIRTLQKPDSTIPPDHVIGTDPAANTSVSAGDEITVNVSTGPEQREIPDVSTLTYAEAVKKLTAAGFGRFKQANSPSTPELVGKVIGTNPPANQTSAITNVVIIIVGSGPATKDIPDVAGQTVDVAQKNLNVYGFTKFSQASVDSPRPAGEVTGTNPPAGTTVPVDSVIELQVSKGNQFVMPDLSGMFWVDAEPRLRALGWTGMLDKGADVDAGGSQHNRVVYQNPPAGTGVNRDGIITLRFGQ
Chain of UniProt Q8WTQ7 (whole entry, looked up): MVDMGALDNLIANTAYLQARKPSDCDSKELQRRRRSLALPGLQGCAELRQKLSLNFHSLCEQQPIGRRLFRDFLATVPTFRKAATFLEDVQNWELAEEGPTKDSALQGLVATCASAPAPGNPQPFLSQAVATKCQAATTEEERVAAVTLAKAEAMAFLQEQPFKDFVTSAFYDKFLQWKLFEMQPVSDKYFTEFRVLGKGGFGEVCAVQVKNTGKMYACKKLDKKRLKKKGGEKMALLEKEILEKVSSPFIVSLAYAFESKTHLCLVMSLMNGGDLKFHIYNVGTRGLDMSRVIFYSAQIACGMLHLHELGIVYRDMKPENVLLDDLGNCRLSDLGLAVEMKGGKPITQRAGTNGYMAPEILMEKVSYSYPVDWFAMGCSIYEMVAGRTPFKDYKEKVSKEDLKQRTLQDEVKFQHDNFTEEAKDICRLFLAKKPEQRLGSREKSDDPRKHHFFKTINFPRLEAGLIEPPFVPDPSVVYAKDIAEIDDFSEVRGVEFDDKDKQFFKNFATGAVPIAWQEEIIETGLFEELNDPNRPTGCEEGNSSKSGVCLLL
Chain of UniProt Q96PY6 (whole entry, looked up): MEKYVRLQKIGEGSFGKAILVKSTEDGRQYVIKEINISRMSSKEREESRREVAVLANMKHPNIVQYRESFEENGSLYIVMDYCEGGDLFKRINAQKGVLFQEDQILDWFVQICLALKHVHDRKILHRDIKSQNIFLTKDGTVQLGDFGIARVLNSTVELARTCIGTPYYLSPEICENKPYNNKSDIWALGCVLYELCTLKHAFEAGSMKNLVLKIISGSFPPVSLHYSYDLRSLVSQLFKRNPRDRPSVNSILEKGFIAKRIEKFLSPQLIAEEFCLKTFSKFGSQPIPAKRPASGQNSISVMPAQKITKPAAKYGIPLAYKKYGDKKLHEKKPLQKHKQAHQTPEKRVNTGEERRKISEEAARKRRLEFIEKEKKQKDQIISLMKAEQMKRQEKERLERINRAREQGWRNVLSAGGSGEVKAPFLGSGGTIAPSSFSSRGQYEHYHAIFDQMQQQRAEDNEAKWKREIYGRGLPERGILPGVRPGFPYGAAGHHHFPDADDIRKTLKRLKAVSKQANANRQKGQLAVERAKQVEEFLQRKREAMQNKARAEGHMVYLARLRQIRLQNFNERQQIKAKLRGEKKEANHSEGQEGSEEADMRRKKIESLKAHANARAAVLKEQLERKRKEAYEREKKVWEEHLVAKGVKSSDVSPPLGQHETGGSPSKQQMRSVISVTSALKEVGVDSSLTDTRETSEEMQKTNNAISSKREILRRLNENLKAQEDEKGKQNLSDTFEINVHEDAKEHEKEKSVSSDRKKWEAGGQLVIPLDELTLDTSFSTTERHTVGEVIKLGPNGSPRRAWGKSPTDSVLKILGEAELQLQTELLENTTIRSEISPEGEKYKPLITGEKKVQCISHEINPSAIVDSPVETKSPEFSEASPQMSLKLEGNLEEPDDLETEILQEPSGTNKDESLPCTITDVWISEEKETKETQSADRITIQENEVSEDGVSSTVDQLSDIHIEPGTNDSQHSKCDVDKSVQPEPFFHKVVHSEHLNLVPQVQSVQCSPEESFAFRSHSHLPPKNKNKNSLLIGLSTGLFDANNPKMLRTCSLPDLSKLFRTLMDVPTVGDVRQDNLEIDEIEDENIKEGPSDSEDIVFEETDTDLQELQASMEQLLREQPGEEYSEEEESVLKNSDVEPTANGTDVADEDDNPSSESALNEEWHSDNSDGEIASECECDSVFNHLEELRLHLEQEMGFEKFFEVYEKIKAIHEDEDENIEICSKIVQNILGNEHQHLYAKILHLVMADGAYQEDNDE
Chain of UniProt P42685 (whole entry, looked up): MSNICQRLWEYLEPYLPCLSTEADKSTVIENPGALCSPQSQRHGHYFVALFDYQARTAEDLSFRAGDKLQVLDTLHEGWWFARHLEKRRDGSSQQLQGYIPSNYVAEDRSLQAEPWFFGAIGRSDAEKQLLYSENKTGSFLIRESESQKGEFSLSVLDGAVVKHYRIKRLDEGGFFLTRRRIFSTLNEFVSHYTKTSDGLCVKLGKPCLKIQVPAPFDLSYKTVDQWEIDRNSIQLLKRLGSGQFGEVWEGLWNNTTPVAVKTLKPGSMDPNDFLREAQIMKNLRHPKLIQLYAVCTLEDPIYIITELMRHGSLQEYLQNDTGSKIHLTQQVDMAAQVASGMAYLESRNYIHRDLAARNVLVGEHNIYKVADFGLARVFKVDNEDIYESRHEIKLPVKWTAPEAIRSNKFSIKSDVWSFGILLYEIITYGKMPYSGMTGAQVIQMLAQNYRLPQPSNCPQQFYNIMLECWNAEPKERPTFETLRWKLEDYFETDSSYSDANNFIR
Chain of UniProt Q9HC98 (whole entry, looked up): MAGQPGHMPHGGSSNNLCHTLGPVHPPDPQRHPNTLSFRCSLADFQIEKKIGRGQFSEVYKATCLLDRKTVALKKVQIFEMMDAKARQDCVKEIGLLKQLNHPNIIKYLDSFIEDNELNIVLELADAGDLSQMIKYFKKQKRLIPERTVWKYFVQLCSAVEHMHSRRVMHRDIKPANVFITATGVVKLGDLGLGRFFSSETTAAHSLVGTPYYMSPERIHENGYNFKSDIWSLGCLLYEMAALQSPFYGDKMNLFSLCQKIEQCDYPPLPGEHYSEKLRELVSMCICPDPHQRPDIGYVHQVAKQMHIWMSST
Chain of UniProt Q99683 (whole entry, looked up): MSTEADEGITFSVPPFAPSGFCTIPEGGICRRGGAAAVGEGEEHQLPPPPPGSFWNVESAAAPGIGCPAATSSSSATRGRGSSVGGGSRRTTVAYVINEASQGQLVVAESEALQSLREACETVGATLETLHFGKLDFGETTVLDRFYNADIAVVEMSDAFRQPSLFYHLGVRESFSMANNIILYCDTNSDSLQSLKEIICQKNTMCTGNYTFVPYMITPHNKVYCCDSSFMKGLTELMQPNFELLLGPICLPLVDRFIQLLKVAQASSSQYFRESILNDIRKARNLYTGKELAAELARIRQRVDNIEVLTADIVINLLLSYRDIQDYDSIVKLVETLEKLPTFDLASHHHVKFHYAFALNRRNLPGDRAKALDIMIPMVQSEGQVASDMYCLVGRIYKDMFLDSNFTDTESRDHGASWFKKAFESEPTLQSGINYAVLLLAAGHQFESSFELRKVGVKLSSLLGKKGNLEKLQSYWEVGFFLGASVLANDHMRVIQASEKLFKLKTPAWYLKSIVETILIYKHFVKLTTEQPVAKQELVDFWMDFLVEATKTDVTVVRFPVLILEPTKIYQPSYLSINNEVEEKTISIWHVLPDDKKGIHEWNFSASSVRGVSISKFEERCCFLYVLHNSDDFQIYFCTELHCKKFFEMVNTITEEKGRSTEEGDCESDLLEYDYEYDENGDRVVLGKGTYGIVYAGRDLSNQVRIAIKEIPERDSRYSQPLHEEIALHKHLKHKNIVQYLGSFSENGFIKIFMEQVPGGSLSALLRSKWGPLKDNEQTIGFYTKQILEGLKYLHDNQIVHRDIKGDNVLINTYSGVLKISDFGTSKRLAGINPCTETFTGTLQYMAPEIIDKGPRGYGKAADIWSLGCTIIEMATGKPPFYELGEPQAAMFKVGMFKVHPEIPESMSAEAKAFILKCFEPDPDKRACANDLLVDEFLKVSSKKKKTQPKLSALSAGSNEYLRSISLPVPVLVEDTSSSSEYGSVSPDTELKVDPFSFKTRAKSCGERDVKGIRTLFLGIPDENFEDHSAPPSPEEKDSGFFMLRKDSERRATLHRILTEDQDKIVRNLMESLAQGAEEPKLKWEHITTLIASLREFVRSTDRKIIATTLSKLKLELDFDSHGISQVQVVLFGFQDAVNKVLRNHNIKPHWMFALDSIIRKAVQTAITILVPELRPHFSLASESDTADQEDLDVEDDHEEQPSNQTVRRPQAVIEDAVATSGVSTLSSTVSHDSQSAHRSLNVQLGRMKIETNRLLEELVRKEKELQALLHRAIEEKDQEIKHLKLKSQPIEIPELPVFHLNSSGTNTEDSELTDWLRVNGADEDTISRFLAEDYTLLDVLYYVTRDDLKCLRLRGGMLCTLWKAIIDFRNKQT

Series 1
Target: vesicular stomatitis virus glycoprotein
Effect on: viral entry
Method: VSVΔG-G pseudovirus
Concentration: 10 µM
SMILES	inhibition [%]
c1ccc(Nc2nccc(-c3ccncc3)n2)cc1	12
O=C(NC1CCCCCC1)c1ccc(-c2ccc(F)cc2)nc1	-42
N#CC(C#N)=C/C=C(/Sc1ncc(C(F)(F)F)cc1Cl)c1ccc(Cl)cc1	35
O=C(NC1CCN(Cc2ccccc2)CC1)c1cc2c(=O)n(Cc3ccccc3)ccc2s1	35
Cc1ccccc1NC(=O)N1c2ccccc2CC1c1noc(C2CCOCC2)n1 (stereo not shown)	-11
CC(C)(C)N1COc2c(cc(Cl)c3cccnc23)C1	23
CCc1ccc2nc(C)c(CN3CCCC3)c(O)c2c1	15
O=C(c1ccc(-c2ccnc3[nH]ccc23)o1)N1CCCCC1	-4.3

Series 2
SMILES: CCn1cnc2c(Nc3cccc(Cl)c3)nc(N[C@H]3CCCC[C@H]3N)nc21
Effect on: enzyme activity
Mode: inhibitor
Concentration: 0.5 µM
Relative to: control
target	remaining activity
Serine/threonine-protein kinase Nek6 (NEK6, Homo sapiens, UniProt Q9HC98)	102%
Mitogen-activated protein kinase kinase kinase 5 (MAP3K5, Homo sapiens, UniProt Q99683)	103%
Serine/threonine-protein kinase Nek1 (NEK1, Homo sapiens, UniProt Q96PY6)	95%
Tyrosine-protein kinase FRK (FRK, Homo sapiens, UniProt P42685)	87.7%
Rhodopsin kinase GRK7 (GRK7, Homo sapiens, UniProt Q8WTQ7)	97.9%

Further values, each from its own experiment
CRK2: Cyclin-dependent kinase 2 homolog (CRK2, Plasmodium falciparum, UniProt P61075)
Chain of UniProt P61075 (whole entry, looked up): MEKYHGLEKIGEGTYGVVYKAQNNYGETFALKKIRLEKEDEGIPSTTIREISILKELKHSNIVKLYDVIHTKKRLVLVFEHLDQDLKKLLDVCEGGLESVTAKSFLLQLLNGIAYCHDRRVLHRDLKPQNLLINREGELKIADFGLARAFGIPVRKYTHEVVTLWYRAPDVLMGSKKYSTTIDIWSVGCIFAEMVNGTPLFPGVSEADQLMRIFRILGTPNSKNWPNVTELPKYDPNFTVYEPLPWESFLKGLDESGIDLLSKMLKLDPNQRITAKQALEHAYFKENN
SMILES	target or system	effect on	method	concentration	notes	quantity	value
CS(=O)(=O)c1cc(C2(NC(=O)c3cncc4c3cnn4-c3ccc(F)cc3)CC2)ccn1	Serine/threonine-protein kinase PknB (pknB, Mycobacterium tuberculosis, UniProt P9WI81)	cell-free assay	competition with immobilised ligand	1 µM	–	remaining binding	99%
CCC(COC(=O)c1cc(OC)c(OC)c(OC)c1)(c1ccccc1)N(C)C.O=C(O)/C=C\C(=O)O (stereo not shown)	Sarcocystis neurona	parasite growth	–	10 µM	first screen	inhibition	-20.6%
O=C(Nc1cccnn1)N1CC(C/C=C/c2cncc(Oc3ccc(C(F)(F)F)cn3)n2)C1	CRK2	cell-free assay	competition with immobilised ligand	1 µM	–	remaining binding	93%
Cl.Oc1cc2c(cc1O)[C@H]1c3ccccc3CN[C@@H]1CC2	Sarcocystis neurona	parasite growth	–	10 µM	first screen	inhibition	-10.1%
CS(=O)(=O)NCC[C@H](NC(=O)c1cncc2c1cnn2-c1ccc(F)cc1)c1ccnc(S(C)(=O)=O)c1	CRK2	cell-free assay	competition with immobilised ligand	1 µM	–	remaining binding	100%
O=C(NC[C@@H]1[C@H]2CN(C(=O)OCc3cc(C(F)(F)F)cc(C(F)(F)F)c3)C[C@@H]12)c1ccc2[nH]nnc2c1	Calcium-dependent protein kinase 1 (CDPK1, Plasmodium falciparum, UniProt P62344)	cell-free assay	competition with immobilised ligand	1 µM	–	remaining binding	99%

For quick reference, copied from above (further values, each from its own experiment):
SMILES	target or system	effect on	method	concentration	notes	quantity	value
CS(=O)(=O)c1cc(C2(NC(=O)c3cncc4c3cnn4-c3ccc(F)cc3)CC2)ccn1	Serine/threonine-protein kinase PknB (pknB, Mycobacterium tuberculosis, UniProt P9WI81)	cell-free assay	competition with immobilised ligand	1 µM	–	remaining binding	99%
